Measurements collected from several papers.
A part holds a random share of what one study measured. Positions count from the first letter of the parent shown.

Set 1
Target: CCNB2, cyclin fold, Cln2 fusion (human)
Technique: yeast growth competition, sequencing
Sample: yeast
Setting: weak parent motif
Reference: not given
Reading: higher = stronger binding
Endpoint: normalised enrichment score
Starting sequence: RBL2 docking peptide (human); STTRRRLFVENDS; partner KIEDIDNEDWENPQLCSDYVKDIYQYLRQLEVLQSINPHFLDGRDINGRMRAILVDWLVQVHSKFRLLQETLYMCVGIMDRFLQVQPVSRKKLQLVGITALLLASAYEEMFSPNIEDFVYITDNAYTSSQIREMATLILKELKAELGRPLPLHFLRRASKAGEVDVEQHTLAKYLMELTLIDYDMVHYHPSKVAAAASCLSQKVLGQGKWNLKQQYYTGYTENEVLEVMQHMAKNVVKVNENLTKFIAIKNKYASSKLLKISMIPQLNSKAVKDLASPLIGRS
STTRRDLFVENDS [R6D]: 0.191
STTKRRLFVENDS [R4K]: 0.172
STTRRRGFVENDS [L7G]: -0.437
STTRRRLFSENDS [V9S]: 0.255
STTRRQLFVENDS [R6Q]: 0.619
STTRRRLFDENDS [V9D]: 0.184

Set 2
Target: Fragile X messenger ribonucleoprotein 1, C-terminal low-complexity region (Fmr1, Mus musculus, UniProt P35922)
Technique: RNA Bind-n-Seq
Molecule type: RNA
Sample: in vitro
Concentration: 200 nM
Setting: whole 134-nt RNA, ends assumed
With: 150 mM KCl
Reference: input library
Reading: higher = stronger binding
Endpoint: log2 enrichment
Shared flanks, not repeated: GGGAGUUCUACAGUCCGACGAUC … UGGAAUUCUCGGGUGUCAAGG
AAGUCCUGUGCUACACAUCGUAUGUACCGAAUCGGUUUUUUUGGAGGUUUUUUUGGAAAGUAUUAUGUUACGCCGUUCGGAUCUGCACUU: -0.869
UCAAGUCCUGUGCUACACAUCGUAUGUACCGAAUCGGAAAGGGAAAGGGAAAGGGAAAGUAUUAUGUUACGCCGUUCGGAUCUGCACUUC: -0.487
CCUGUGCUACACAUCGUAUGUACCGAAUCGGUUUUUUUGGUUUUUUUGGGUUUUUUUGGGAAAGUAUUAUGUUACGCCGUUCGGAUCUGC: -0.681
GUCCUGUGCUACACAUCGUAUGUACCGAAUCGGGGUUUUUGGUUUUUGGGUUUUUGGGAAAGUAUUAUGUUACGCCGUUCGGAUCUGCAC: -0.318
GAGGAGAUAAUCUCGGAAAAGUUACGGAAACCUGGGAAGUCGGCGAAACCCUACGUUCGGGUGUUUUCGGAAGCAGCCGAAGCGGCCGCC: -0.302
CACAGACAACACGCACCCACACAGACACAGAGGGAAGGGGUUGGAAUGGGGACAGGGUGCACAGCAGGGCGGGGUAGGACCCCAGCCCCU: 1.22
AAGUCCUGUGCUACACAUCGUAUGUACCGAAUCGGGUUUGGGUUUUUGGGUUUGGGAAAGUAUUAUGUUACGCCGUUCGGAUCUGCACUU: 0.936

Set 3
Target: Histone acetyltransferase KAT6A, winged helix 2, GST fusion (KAT6A, Homo sapiens, UniProt Q92794, residues 85-181)
Technique: protein binding microarray
Molecule type: double-stranded DNA, one strand shown
Sample: in vitro
Concentration: not given
Setting: 8-mer, flanks averaged, mean of 2 arrays, mostly near background
Reference: not given
Reading: higher = stronger binding
Endpoint: E-score
Construct (chain): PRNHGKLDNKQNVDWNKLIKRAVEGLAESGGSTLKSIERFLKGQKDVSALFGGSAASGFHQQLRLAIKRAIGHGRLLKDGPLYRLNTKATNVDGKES
GCAACACC: 0.00987
AAGTTTCT: -0.144
GCCCCTAA: -0.114
CATAAAGG: 0.0783
GGTACGAC: -0.11
ATTGATGC: 0.0641
ACAGCGGC: 0.02

Further values, each from its own experiment
PhoQ, residues 284 288 289 292 302 303 SLANKL — fold induction (PhoP, residues 12 14 15 18 19 STWGI (Escherichia coli, UniProt P23836); Sort-seq, item: YFP reporter; E. coli; PhoQ-PhoP variant library, with: 10 µM Mg2+; reference: high Mg2+ state, higher = stronger signaling): 7.15
